Published values collected from several papers.
Parts stem from different laboratories: compare values within a part only. Substitutions count along the parent as printed.

Block 1
Target: ABI1, truncated, D143A, DHFR fusion (Arabidopsis thaliana)
Technique: DHFR PCA, deep sequencing
Medium: yeast
Notes: methotrexate growth selection, single substitutions
With: (+)-ABA 200 µM
Baseline: wild-type fitted maximum
Reading: higher = stronger binding
Measurement: relative binding score
Starting sequence: PYL1, truncated, DHFR fusion (Arabidopsis thaliana); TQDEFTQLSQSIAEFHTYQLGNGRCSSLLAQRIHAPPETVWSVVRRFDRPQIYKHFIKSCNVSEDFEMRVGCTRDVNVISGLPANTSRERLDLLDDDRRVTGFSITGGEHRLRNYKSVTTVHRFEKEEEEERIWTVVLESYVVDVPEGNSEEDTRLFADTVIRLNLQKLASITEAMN; partner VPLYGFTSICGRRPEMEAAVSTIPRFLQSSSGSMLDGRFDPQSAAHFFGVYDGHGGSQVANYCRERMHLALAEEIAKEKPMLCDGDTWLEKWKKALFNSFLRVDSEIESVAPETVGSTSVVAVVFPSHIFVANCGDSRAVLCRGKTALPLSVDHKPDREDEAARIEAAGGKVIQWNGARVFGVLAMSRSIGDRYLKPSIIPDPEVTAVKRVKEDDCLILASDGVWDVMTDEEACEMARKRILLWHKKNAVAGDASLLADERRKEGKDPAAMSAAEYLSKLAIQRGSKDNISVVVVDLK
Variant = L28H; result = 58.8%
Variant = F103N; result = -11.1%
Variant = K126G; result = 107%
Variant = L156V; result = 97.5%
Variant = N61D; result = 98.1%
Variant = T1A; result = 92.9%
Variant = M176W; result = 96%
Variant = N114C; result = 46.8%
Variant = A13M; result = 94.6%
Variant = E64D; result = 104%
Variant = N22K; result = 97.4%
Variant = E125R; result = 104%
Variant = F66P; result = 84.7%
Variant = L94C; result = 79.9%
Variant = I172T; result = 91.7%
Variant = I52G; result = 93.2%
Variant = R90E; result = 82.3%
Variant = E4I; result = 99.4%
Variant = A158D; result = 9.04%
Variant = D65M; result = 94.9%
Variant = Y141S; result = 4.8%
Variant = R132Q; result = 110%
Variant = E67C; result = 98%
Variant = N22A; result = 100%
Variant = C60G; result = 10.1%

Block 2
Target: CCND1, cyclin fold, Cln2 fusion (human)
Technique: yeast growth competition, sequencing
Medium: yeast
Notes: weak parent motif
Baseline: not given
Reading: higher = stronger binding
Measurement: normalised enrichment score
Starting sequence: WEE1 docking peptide (human); HKTFRKLRLFDTP
Variant = K6I; result = 0.388
Variant = T3R; result = -0.553
Variant = D11R; result = -0.0112
Variant = L9K; result = -0.228
Variant = K6R; result = -0.0333
Variant = R5H; result = 0.934
Variant = L9T; result = -0.585
Variant = F10H; result = -0.586
Variant = K2H; result = 0.189
Variant = R8H; result = 0.279
Variant = K2V; result = -0.0725
Variant = P13W; result = -0.242
Variant = L7W; result = 0.56
Variant = K2C; result = 0.106
Variant = P13S; result = -0.26
Variant = K2I; result = 0.186
Variant = R5C; result = -0.3
Variant = R8P; result = -0.321
Variant = T12G; result = 0.407
Variant = R5K L9F; result = 0.0833
Variant = R8F; result = -0.06
Variant = L9N; result = -0.244
Variant = T12Y; result = -0.17
Variant = F4C; result = 0.101
Variant = T12I; result = 0.549

Block 3
Target: Interferon regulatory factor 3, full length, phosphomimetic (IRF3, Homo sapiens, UniProt Q14653, residues 1-427, S386D/S396D/S398D/S402D/T404D/S405D)
Technique: protein-binding microarray
Form: double-stranded DNA, one strand shown
Medium: in vitro
Tested at: 2540 nM top
Notes: 60-bp whole probe
With: salmon DNA 0.4 mg/ml
Baseline: random background probes
Reading: higher = stronger binding
Measurement: fitted relative affinity
Shared flanks, not repeated: GCCTAGCAC … GTCTTGATTCGCTTGACGCTGCTG
Residues (chain): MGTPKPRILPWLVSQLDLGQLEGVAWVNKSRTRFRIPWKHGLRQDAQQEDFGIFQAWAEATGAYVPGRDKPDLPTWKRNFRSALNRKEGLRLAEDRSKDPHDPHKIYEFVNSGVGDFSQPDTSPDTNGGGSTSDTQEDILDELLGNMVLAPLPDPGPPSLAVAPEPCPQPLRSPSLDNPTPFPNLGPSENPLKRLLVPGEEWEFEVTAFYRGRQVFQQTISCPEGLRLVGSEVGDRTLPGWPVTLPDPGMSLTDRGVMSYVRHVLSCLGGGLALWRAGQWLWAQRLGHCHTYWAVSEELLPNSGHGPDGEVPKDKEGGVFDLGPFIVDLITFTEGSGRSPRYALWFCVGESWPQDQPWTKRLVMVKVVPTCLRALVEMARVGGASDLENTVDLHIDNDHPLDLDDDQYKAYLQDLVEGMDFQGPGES
Strand = GACGACCTCAGACTGGAGACGTGCTAG; result = -0.505 z-score
Strand = GACGGAGTGGGTCTCGGGACGTGCTAG; result = -0.839 z-score
Strand = TCATTTATGCACTCTCTAACTGTGCTA; result = 1.38 z-score
Strand = TCAGTTTTCTGGTTCCCACTGTGCTAG; result = 1.83 z-score
Strand = TTAGGACTGGGATTTCGGTTAGTGCTA; result = 0.373 z-score
Strand = TCAGGACTGGACACTGGGTTAGTGCTA; result = -0.703 z-score
Strand = TCACCTCTTTCTCTGCTACTGTGCTAG; result = 1.76 z-score
Strand = GACGAACTGCGACTGGAGACGTGCTAG; result = -0.38 z-score
Strand = TCACTTCTAGACTTCTCACTGTGCTAG; result = 1.03 z-score
Strand = GAACCTTGGGCTCTAGGTTCGTGCTAG; result = -0.23 z-score
Strand = TTAGGTCTCGGTCTCGGTTTGTGCTAG; result = 1.58 z-score
Strand = TCATTTTTGTATTTTTGACTGTGCTAG; result = 1.51 z-score
Strand = TTAGGTTTCCTTCGCCTTTAGTGCTAG; result = 2.98 z-score
Strand = TTTGATTTCGGGTATCGATTAGTGCTA; result = 1.91 z-score
Strand = TCAGGTTTCTATATTTGACTGTGCTAG; result = 2.49 z-score
Strand = GGCGGTTCCCTTTTCCTGACGTGCTAG; result = 6.46 z-score
Strand = TTAGGTTTCCTTATCCTGTAGTGCTAG; result = 8.17 z-score
Strand = TTAGGTATCGGAACTGGGTTAGTGCTA; result = 3.64 z-score
Strand = TTAGGTATCCGACTGGGTTAGTGCTAG; result = 1.94 z-score

Block 4
Target: Histone acetyltransferase KAT6A, winged helix 1, GST fusion (KAT6A, Homo sapiens, UniProt Q92794, residues 1-85)
Technique: protein binding microarray
Form: double-stranded DNA, one strand shown
Medium: in vitro
Tested at: not given
Notes: 8-mer, flanks averaged, mean of 2 arrays, mostly near background
Baseline: not given
Reading: higher = stronger binding
Measurement: E-score
Target sequence (chain): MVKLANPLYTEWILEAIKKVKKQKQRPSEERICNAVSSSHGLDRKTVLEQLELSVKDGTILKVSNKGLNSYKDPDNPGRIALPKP
Strand = GGACCTAA; result = 0.0616
Strand = CAAGGTCC; result = -0.0287
Strand = CAATGTCC; result = -0.0375
Strand = AAAGCTCA; result = -0.209
Strand = GGGCTTGA; result = -0.176
Strand = GGTGCTTA; result = 0.0431
Strand = AACGTGCG; result = 0.143
Strand = ACAGCGCC; result = 0.325
Strand = AGTTGGAC; result = -0.039
Strand = AATGCCCC; result = -0.0779
Strand = CAACAGTC; result = -0.125
Strand = CCGATAAG; result = 0.0157
Strand = CGAGTTTA; result = -0.0929
Strand = CGATGGCG; result = 0.277
Strand = ACATGGGA; result = -0.114
Strand = ATACTCAC; result = -0.158
Strand = CGACCAGA; result = -0.105
Strand = AAATTCAT; result = -0.165
Strand = AAATGTGA; result = -0.0106
Strand = GGGGTCAA; result = 0.0789
Strand = CGCAGGAA; result = 0.0553
Strand = CAATTGCA; result = -0.097
Strand = TCGGACGA; result = 0.0092
Strand = GTTACACA; result = -0.0349
Strand = GCAATCCC; result = 0.122
